Published values of several laboratories.
± gives the spread as reported.
Oprk1: Kappa-type opioid receptor (Oprk1, Rattus norvegicus, UniProt P34975)

SMILES | target | assay | system | setting | Ki [nM]
CC[C@H](C)[C@H](NC(=O)[C@@H](CNC(=O)[C@@H]1CCCN1C(=O)[C@H](CCCNC(=N)N)NC(=O)[C@@H](N)CCCNC(=N)N)Cc1ccc(O)cc1)C(=O)N[C@@H](CC(C)C)C(=O)O | NTSR2 (Homo sapiens, UniProt O95665) | ligand displacement, radioligand |  | cell membranes | 5600
CC(=O)N[C@@H](CCCNC(=N)N)C(=O)N[C@H](Cc1ccc(O)cc1)C(=O)N[C@@H](CCCNC(=N)NC(=O)NCCCCN)C(=O)N[C@@H](CC(C)C)C(=O)N[C@@H](CCCNC(=N)N)C(=O)N[C@@H](Cc1ccc(O)cc1)C(N)=O | NPY1R (Homo sapiens, UniProt P25929) | ligand displacement, radioligand |  |  | > 5000
CC[C@H](C)[C@H](NC(=O)CN)C(=O)N[C@H](C(=O)N[C@@H](CC(N)=O)C(=O)N[C@H](C(=O)N[C@@H](CC(C)C)C(=O)N[C@@H](CCC(N)=O)C(=O)N[C@@H](CCCCN)C(=O)N[C@@H](Cc1ccc(O)cc1)C(=O)N[C@@H](C)C(=O)N[C@H]1CSSC[C@@H]2NC(=O)[C@H](CCCCN)NC(=O)[C@H](CCCNC(=N)N)NC(=O)CNC(=O)[C@H](CCCNC(=N)N)NC(=O)[C@H]([C@@H](C)O)NC(=O)[C@H](CO)NC(=O)[C@@H]3CSSC[C@H](NC(=O)[C@H](CCCNC(=N)N)NC(=O)CNC(=O)CNC(=O)[C@H](CCCNC(=N)N)NC(=O)[C@H](C(C)C)NC(=O)[C@H](CCCNC(=N)N)NC1=O)C(=O)N[C@@H](C)C(=O)N[C@@H](C(C)C)C(=O)N[C@@H](CC(C)C)C(=O)N[C@@H](CO)C(=O)N[C@@H](CSSC[C@@H](C(=O)N[C@@H](CCCNC(=N)N)C(=O)N[C@@H](CCCNC(=N)N)C(=O)N[C@@H](CCCCN)C(=O)N[C@@H](CCCCN)C(N)=O)NC2=O)C(=O)N[C@@H](CC(C)C)C(=O)N1CCC[C@H]1C(=O)N[C@@H](CCCCN)C(=O)N[C@@H](CCC(=O)O)C(=O)N[C@@H](CCC(=O)O)C(=O)N[C@@H](CCC(N)=O)C(=O)N[C@@H]([C@@H](C)CC)C(=O)NCC(=O)N[C@@H](CCCCN)C(=O)N3)[C@@H](C)O)[C@@H](C)CC | MC1R (Homo sapiens, UniProt Q01726) | ligand displacement in cells |  |  | 55
CCCC(=O)c1ccc2c(c1)sc(=O)n2CCCCN1CCCCCC1 | Sigmar1 (Rattus norvegicus, UniProt Q9R0C9) | binding, radioligand binding | rat liver membranes | together with: [3H](+)-pentazocine 5 nM | 4.8 ± 0.1
CC[C@H](C)[C@H](NC(=O)[C@@H]1CSSC[C@H](NC(=O)[C@H](Cc2ccc(O)cc2)NC(=O)CNC(C)=O)C(=O)N[C@@H](CO)C(=O)N[C@@H](CCCNC(=N)N)C(=O)N[C@@H](CO)C(=O)N[C@@H](Cc2ccc(O)cc2)C(=O)N2CCC[C@H]2C(=O)N2CCC[C@H]2C(=O)N[C@@H](C(C)C)C(=O)N1)C(=O)N1CCC[C@H]1C(=O)N[C@@H](CC(=O)O)C(N)=O | Mannan-binding lectin serine protease 2 (Homo sapiens, UniProt O00187) |  |  | together with: 250 µM Z-L-Lys-SBzl substrate | 100 ± 10
CC(C)C[C@H](NC(=O)[C@H](CCCNC(=N)N)NC(=O)[C@H](Cc1ccccc1)NC(=O)[C@H](Cc1ccccc1)NC(=O)[C@H](Cc1ccccc1)N(C)C(=O)COc1ccccc1)C(=O)N[C@@H](CCCNC(=N)N)C(=O)N[C@@H](CCCNC(=N)N)C(=O)N[C@H](C)C(=O)N[C@@H](CCCNC(=N)N)C(=O)N1CCC[C@H]1C(=O)N[C@@H](CCCCN)C(N)=O | Oprk1 | ligand displacement, radioligand |  |  | 7.34
N=C(N)NCCC[C@@H]1NC(=O)[C@H](CCCNC(=N)N)NC(=O)[C@H](NC(=O)[C@H](Cc2ccccc2)NC(=O)CNC(=O)CNC(=O)[C@H](Cc2ccc(O)cc2)NCc2ccccc2)CC(=O)NCC[C@@H](C(=O)N[C@@H](CCCNC(=N)N)C(=O)N2CCC[C@H]2C(=O)N[C@@H](CCCCN)C(N)=O)NC1=O | Oprk1 | cell-free assay |  |  | 403
Cc1cc2c(cc1Cl)-c1c(c(C(=O)NCC34CC5CC(CC(C5)C3)C4)nn1-c1ccc(Cl)cc1Cl)C2 | Cnr1 (Mus musculus, UniProt P47746) | binding, radioligand displacement | mouse brain homogenate without cerebellum | together with: [3H]CP-55,940 | > 5000
O=c1oc2c(CNCCc3cccc(F)c3)c(O)ccc2c2c1CCC2 | ache (Electrophorus electricus, UniProt O42275) | enzyme activity, inhibitor |  |  | 210
CCCCCCCCCCCCCCCc1ccc(C(Br)P(=O)(O)O)cc1 (racemic) | Autotaxin (ENPP2, Homo sapiens, UniProt Q13822) |  |  | free enzyme | 6100

Repeated from above:
SMILES | target | assay | system | setting | Ki [nM]
CC(=O)N[C@@H](CCCNC(=N)N)C(=O)N[C@H](Cc1ccc(O)cc1)C(=O)N[C@@H](CCCNC(=N)NC(=O)NCCCCN)C(=O)N[C@@H](CC(C)C)C(=O)N[C@@H](CCCNC(=N)N)C(=O)N[C@@H](Cc1ccc(O)cc1)C(N)=O | NPY1R (Homo sapiens, UniProt P25929) | ligand displacement, radioligand |  |  | > 5000
